{"data": "Published values from different studies", "note": "Each line is one published result; not all experiments were run side by side. Values joined by “and” are separate records of one study, mostly repeats; a detail may differ. ± gives the spread as reported."}
{"SMILES": "COc1ccc2c(c1)OC1=C(C(=O)CCC1)C2c1c[nH]c2ccccc12 (centres unmarked)", "cell line": "3T3-L1 adipocytes", "assay": "qPCR, item: FAS", "setting": "IC20, 14 days", "how to read": "baseline: untreated mature adipocytes", "endpoint": "mRNA level", "value": "decreased"}
{"SMILES": "CCC(=CCc1c(O)cc2c(c1O)C(=O)CC(c1ccc(O)cc1)O2)CC (centres unmarked)", "cell line": "HeLa", "assay": "flow cytometry", "setting": "24 µM, 48 h", "endpoint": "active caspase-3 cells", "value": "15.7%"}
{"SMILES": "CSC(=S)N/N=C(\\C)c1ccc(Nc2nnc(-c3ccc(Cl)cc3)c3ccccc23)cc1", "cell line": "HepG2", "assay": "cell growth or viability, MTT", "setting": "0.625 µM, 24 h", "endpoint": "viability", "value": "6.7%"}
{"SMILES": "CCOc1cncc(-c2ccc(NC(=O)C3(c4ccnc(NS(=O)(=O)C5CC5)n4)CCOCC3)nc2)n1", "cell line": "A204", "assay": "cell proliferation, CellTiter-Glo", "setting": "72 h, Sarcoma cancer", "endpoint": "IC50", "value": "0.113 µM"}
{"SMILES": "Cc1ccncc1.[Cl-].[Cl-].[Ru+2].c1cc(-c2ccc3cccnc3n2)nc(-c2ccc3cccnc3n2)c1.c1ccc2cc3nc4c5cccnc5c5ncccc5c4nc3cc2c1", "cell line": "SK-MEL-28", "setting": "visible light, oxygen 1%", "how to read": "baseline: dark EC50 over light EC50", "endpoint": "phototherapeutic index", "value": 1}
{"SMILES": "O=C(NN1C(=O)c2ccccc2NC1c1ccc([N+](=O)[O-])o1)c1ccc([N+](=O)[O-])cc1 (centres unmarked)", "cell line": "LDR", "assay": "silenced CMV-GFP reporter derepression, qHTS", "endpoint": "EC50", "value": "10 µM"}
{"SMILES": "CC(C)c1ccc(N(C)c2ccc3c(c2)OCC[C@H]3CNc2cnccc2C(=O)O)cc1", "cell line": "A204", "assay": "cell growth or viability, ATP luminescence", "setting": "7 days", "endpoint": "IC50", "value": "≥ 10 µM"}
{"SMILES": "CO[C@@H]1[C@@H](OC(N)=O)[C@@H](O)[C@H](Oc2ccc3c(O)c(NC(=O)c4ccc(O)c(CC=C(C)C)c4)c(=O)oc3c2C)OC1(C)C", "cell line": "HCT-116 BRCA2 wild-type", "setting": "50 µM, mean of replicates A, B", "how to read": "baseline: untreated", "endpoint": "colony survival", "value": "88.5%"}
{"SMILES": "CN1CCCNC(=O)c2cccc(c2)C(=O)NCCCN(C)CCCNc2cccc3c2C(=O)c2cccc(c2C3=O)NCCC1", "cell line": "SAS", "assay": "RNA-seq, item: MT-ND5 mRNA", "setting": "1 µM, 6 h", "how to read": "baseline: untreated cells", "endpoint": "log2 fold change", "value": -2.54}
{"SMILES": "O=[N+]([O-])C(=C\\Nc1ccccc1O)/C=N/c1ccccc1O", "cell line": "LDR", "assay": "silenced CMV-GFP reporter derepression, qHTS", "endpoint": "efficacy", "value": "21%"}
{"SMILES": "Cc1cc(NC2CCN(C)CC2)ccc1-c1cc2c(N3CCC[C@H](C(=O)N4CCCC4)C3)ncnc2[nH]1", "cell line": "NCI-H2228", "assay": "cell growth or viability, MTT", "setting": "5 µg/mL, 72 h", "endpoint": "inhibition", "value": "76.7%"}
{"SMILES": "O=C(C[Se]C(=O)c1cc2ccccc2o1)Nc1cccc(C(F)(F)F)c1", "cell line": "NCI60 renal subpanel", "assay": "total growth inhibition, inhibitor", "setting": "five-dose", "endpoint": "mean TGI", "value": "3.35 µM"}
{"SMILES": "Cc1sc2c(c1C)C(c1ccc(Cl)cc1)=N[C@@H](CC(=O)NCC(=O)N1CCC3(CCC(C(=O)N4CCN(C(=O)c5cc(Cc6n[nH]c(=O)c7ccccc67)ccc5F)CC4)CC3)CC1)c1nnc(C)n1-2", "cell line": "NCI-H82", "setting": "10 nM, 24 h", "endpoint": "cells in G2 phase", "value": "21%"}
{"SMILES": "Cc1n[nH]c(C)c1-c1cc2c(N3CCC[C@H](C(=O)NCc4ccc(OC(F)(F)F)cc4)C3)ncnc2[nH]1", "cell line": "NCI-H2228", "assay": "cell growth or viability, MTT", "setting": "1 µg/mL, 72 h", "endpoint": "inhibition", "value": "76.1%"}
{"SMILES": "Cn1ncc2cc(-c3cncc(Cl)c3N3CCC4(CCNC4=O)CC3)ccc21", "cell line": "LS174T", "assay": "gene expression, microarray, item: RNF183 mRNA", "setting": "concentration not given, 24 h", "how to read": "baseline: untreated cells", "endpoint": "log2 fold change", "value": 3.38}
{"SMILES": "COc1cc(-c2cc3c(N4CCC[C@H](C(=O)NCc5ccc(OC(F)(F)F)cc5)C4)ncnc3[nH]2)cc(OC)c1OC", "cell line": "NCI-H2228", "assay": "cell growth or viability, MTT", "setting": "1 µg/mL, 72 h", "endpoint": "inhibition", "value": "67.4%"}
{"SMILES": "COc1ccc(NC(=O)CSc2nc3c(oc4ccccc43)c(=O)n2Cc2ccco2)cc1Cl", "cell line": "LDR", "assay": "silenced CMV-GFP reporter derepression, qHTS", "endpoint": "Emax", "value": "72%"}
{"SMILES": "COc1ccc(NC(=O)c2ccc3[nH]c(-c4ccc(N(C)C)cc4)nc3c2)cn1", "cell line": "HCT-116", "setting": "6 h, unit not given", "how to read": "baseline: DMSO", "endpoint": "extracellular HMGB1", "value": 4.59}
{"SMILES": "CC(C)Cc1ccc(C(C)C(=O)[Se]CC(=O)Nc2cccc(C(F)(F)F)c2)cc1 (centres unmarked)", "cell line": "NCI60 renal subpanel", "assay": "cell growth", "setting": "10 µM, 48 h, one-dose", "endpoint": "mean growth percent", "value": "-86.9%"}
{"SMILES": "COC(=O)c1cc(NC2=NC(=O)C(=Cc3ccc(C)cc3)S2)ccc1OC(C)=O", "cell line": "MCF7", "assay": "GC-MS, item: 2-Propenoic acid", "setting": "1 µM", "how to read": "baseline: DMSO", "endpoint": "metabolite level", "value": "-0.12 fold change"}
{"SMILES": "O=C(C[Se]C(=O)c1cc2ccccc2s1)Nc1cccc(C(F)(F)F)c1", "cell line": "NCI60 renal subpanel", "assay": "total growth inhibition, inhibitor", "setting": "five-dose", "endpoint": "mean TGI", "value": "3.19 µM"}
{"SMILES": "Cc1cc(NC2CCN(C)CC2)ccc1-c1cc2c(N3CCC[C@H](C(=O)NCc4ccc(Cl)nc4)C3)ncnc2[nH]1", "cell line": "NCI-H2228", "assay": "cell growth or viability, MTT", "setting": "1 µg/mL, 72 h", "endpoint": "inhibition", "value": "66%"}
{"SMILES": "CCNc1cc2c(cc1C)C1(c3cc(C)c(NCC)cc3O2)c2ccccc2C(=O)N1N=Cc1c[c-]c(-c2ccccn2)cc1.Cc1c(C)c(-c2ccc(-c3ccccc3)cc2)[c-](C)c1C.[Cl-].[Ir+3]", "cell line": "A549", "assay": "PI flow cytometry", "setting": "1 x IC50, 24 h", "endpoint": "S phase cells", "value": "31.3 ± 0.39%"}
{"SMILES": "CN(C)CCN1CCN(c2ccc3nc(-c4ccc5nc(-c6ccc(C(F)(F)F)cc6)[nH]c5c4)[nH]c3c2)CC1", "cell line": "SNB-75", "assay": "SRB", "setting": "10 µM, 48 h", "endpoint": "growth percent", "value": "38.8%"}
{"SMILES": "COc1ccc(NC(=O)C2CCCN(c3ncnc4[nH]c(-c5ccc(NC6CCN(C)CC6)cc5C)cc34)C2)cc1 (centres unmarked)", "cell line": "NCI-H2228", "assay": "cell growth or viability, MTT", "setting": "0.008 µg/mL, 72 h", "endpoint": "inhibition", "value": "62.6%"}
{"SMILES": "CC1=C/C(=N\\N=C(/S)Nc2cccnc2)CC(C)(C)C1", "cell line": "LDR", "assay": "silenced CMV-GFP reporter derepression, qHTS", "endpoint": "EC50", "value": "6.31 µM"}
{"SMILES": "O=C(NCc1ccc(OC(F)(F)F)cc1)[C@H]1CCCN(c2ncnc3[nH]c(-c4cccnc4)cc23)C1", "cell line": "NCI-H2228", "assay": "cell growth or viability, MTT", "setting": "0.008 µg/mL, 72 h", "endpoint": "inhibition", "value": "20.3%"}
{"SMILES": "Cn1ncc(-c2ccc3c(=O)[nH]nc(CN)c3c2)c1-c1c(F)c(Cl)cc(OC2CC2)c1C#N", "cell line": "SCC-9", "assay": "cell viability, inhibitor, CellTiter-Glo", "setting": "120 h, baseline-subtracted", "endpoint": "IC50", "value": "1.38 µM"}
{"SMILES": "O=C(N/N=C/c1ccccn1)c1cc(-c2ccc(Cl)cc2)nc2ccccc12", "cell line": "LDR", "assay": "silenced CMV-GFP reporter derepression, qHTS", "endpoint": "efficacy", "value": "72%"}
{"SMILES": "CCN(C(=O)c1cc(F)ccc1Oc1nncnc1N1CCC2(C1)CN([C@H](CCCN(C)CCOC)C(C)C)C2)C(C)C", "cell line": "NCI-H82", "assay": "cell growth or viability", "setting": "7 days", "endpoint": "GI50", "value": "> 10 µM"}
{"SMILES": "CCN(CC)CC(=O)Nc1cccc(-n2cc(-c3ccc4ccc(-c5cn(-c6cccc(NC(=O)CN(CC)CC)c6)nn5)cc4c3)nn2)c1", "cell line": "RCC4", "assay": "PCR array, item: ENG", "setting": "5 x IC50, 2 h, normoxia", "how to read": "baseline: untreated", "endpoint": "fold regulation", "value": 1.12}
{"SMILES": "O=C(NCc1ccc(OC(F)(F)F)cc1)[C@H]1CCCN(c2ncnc3[nH]c(-c4ccccc4)cc23)C1", "cell line": "NCI-H2228", "assay": "cell growth or viability, MTT", "setting": "1 µg/mL, 72 h", "endpoint": "inhibition", "value": "72%"}
{"SMILES": "COc1ccccc1-c1ccncc1C(=O)Nc1ccc(OCc2ccc(Cl)cc2)nn1", "cell line": "DLD-1 BRCA2-/-", "setting": "5 µM, mean of 3 replicates", "how to read": "baseline: untreated", "endpoint": "colony survival", "value": "99.3%"}
{"SMILES": "O=C(NCc1ccc(OC(F)(F)F)cc1)[C@H]1CCCN(c2ncnc3[nH]c(-c4ccncc4)cc23)C1", "cell line": "NCI-H2228", "assay": "cell growth or viability, MTT", "setting": "0.008 µg/mL, 72 h", "endpoint": "inhibition", "value": "10.6%"}
{"SMILES": "CNS(=O)(=O)Nc1nccc(Cc2c(C)c3ccc(Oc4ncccc4F)cc3oc2=O)c1F", "cell line": "A204", "assay": "cell viability", "setting": "7 days", "endpoint": "IC50", "value": "> 1 µM"}
{"SMILES": "COC(=O)c1cc(NC2=NC(=O)C(=Cc3ccc(N(C)C)cc3)S2)ccc1OC(C)=O", "cell line": "A549", "assay": "item: ACTR8 mRNA", "setting": "2.93 µM (IC50), 24 h", "how to read": "baseline: DMSO", "endpoint": "fold change", "value": 0.0114}
{"SMILES": "Cc1ncsc1-c1ccc(C(C)NC(=O)C2CC(O)CN2C(=O)C(NC(=O)CCCCCCCCCCN2CCCC(Nc3ncc(Cl)c(Nc4ccccc4S(=O)(=O)C(C)C)n3)C2)C(C)(C)C)cc1 (centres unmarked)", "cell line": "22Rv1", "assay": "RNA-seq, item: RNF146 mRNA", "setting": "concentration not given", "how to read": "baseline: DMSO", "endpoint": "log2 fold change", "value": -1.54}
{"SMILES": "COC(=O)[C@H](C)NC(=O)[C@H](C)NC(=O)c1csc(-c2cccnc2)n1", "cell line": "LNCaP", "assay": "cell growth or viability", "endpoint": "EC50", "value": "> 30 µM"}
{"SMILES": "O=C(C[Se]C(=O)c1cc2ccccc2[nH]1)Nc1cccc(C(F)(F)F)c1", "cell line": "NCI60 renal subpanel", "assay": "cell growth", "setting": "10 µM, 48 h, one-dose", "endpoint": "mean growth percent", "value": "-82.8%"}
{"SMILES": "CCCCCCCCCCCC(=O)N[C@H](CO)C[C@@H](O)c1ccccc1", "cell line": "HeLa", "assay": "HPLC-MS/MS", "setting": "1 µM, 24 h", "endpoint": "HexCer 16 level", "value": "23500 pmol/sample and 25500 pmol/sample and 22900 pmol/sample"}
{"SMILES": "O=C(C[Se]C(=O)c1cccnc1Nc1cccc(C(F)(F)F)c1)Nc1cccc(C(F)(F)F)c1", "cell line": "LNCaP", "assay": "Muse oxidative stress", "setting": "10 µM, 24 h, together with: H2O2 250 µM", "endpoint": "ROS-positive cells", "value": "~15%"}
{"SMILES": "COc1ccccc1-c1ccncc1C(=O)Nc1nnc(OCc2ccc(Cl)cc2)s1", "cell line": "MDA-MB-231", "setting": "6 µM", "endpoint": "colony count", "value": "21 and 33"}
{"SMILES": "[Cl-].[Cl-].[Ru+2].c1ccc(-c2ccccn2)nc1.c1ccc(-c2ccccn2)nc1.c1ccc2cc3nc4c5cccnc5c5ncccc5c4nc3cc2c1", "cell line": "SK-MEL-28", "assay": "cell viability, resazurin", "setting": "dark, 1% O2 hypoxia", "how to read": "baseline: dark EC50 over visible EC50", "endpoint": "phototherapeutic index", "value": 1}
{"SMILES": "COc1c(C)c(OC(=O)c2ccccc2)c(C)c(OC(=O)c2ccccc2)c1C(=O)/C=C/c1ccccc1", "cell line": "KKU-M213", "assay": "SRB", "how to read": "baseline: normal over KKU-M213 IC50", "endpoint": "selectivity index", "value": 0.8}
